{"data": "Experimental data pooled from the literature", "note": "Parts stem from different laboratories: compare values within a part only. Substitutions count along the parent as printed."}
{"data": "Set 1", "target": "CCND3, cyclin fold, Cln2 fusion (human)", "technique": "yeast growth competition, sequencing", "matrix": "yeast", "setting": "weak parent motif", "reference": "not given", "reading": "higher = stronger binding", "parent": "BRCA2 docking peptide (human); PSIKRNLLNEFDR; partner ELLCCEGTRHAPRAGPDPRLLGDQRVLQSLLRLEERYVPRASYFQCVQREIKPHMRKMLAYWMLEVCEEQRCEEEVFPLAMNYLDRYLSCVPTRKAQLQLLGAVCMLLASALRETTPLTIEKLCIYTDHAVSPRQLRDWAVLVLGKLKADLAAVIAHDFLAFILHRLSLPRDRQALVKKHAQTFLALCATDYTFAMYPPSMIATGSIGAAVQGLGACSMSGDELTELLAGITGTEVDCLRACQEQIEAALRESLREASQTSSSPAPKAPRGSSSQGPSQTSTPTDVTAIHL"}
{"Variant": "PWIKRNLLNEFDR [S2W]", "normalised enrichment score": 0.049}
{"Variant": "PSIIRNLLNEFDR [K4I]", "normalised enrichment score": 0.0528}
{"Variant": "PSIKRNLLNKFDR [E10K]", "normalised enrichment score": -0.02}
{"Variant": "PSPKRNLLNEFDR [I3P]", "normalised enrichment score": 0.151}
{"Variant": "PSIKRNLLNYFDR [E10Y]", "normalised enrichment score": 0.0161}
{"Variant": "PSIKDNLLNEFDR [R5D]", "normalised enrichment score": 0.192}
{"Variant": "PSIPRNLLNEFDR [K4P]", "normalised enrichment score": 0.133}
{"Variant": "PSIKRNLLVEFDR [N9V]", "normalised enrichment score": 0.123}
{"Variant": "PSIKQNLLNEFDR [R5Q]", "normalised enrichment score": 0.131}
{"data": "Set 2", "target": "Prothrombin, mature alpha-thrombin (F2, Homo sapiens, UniProt P00734)", "technique": "aptamer microarray, sandwich", "form": "DNA with 2'F-ANA", "matrix": "in vitro", "tested at": "200 nM", "setting": "whole 15-mer aptamer, many near background", "with": "Cy3 exosite-II aptamer, 400 nM", "reading": "higher = stronger binding", "strand": "GGTTGGTGTGGTTGG"}
{"Modification": "2'F-ANA at 4 5 9 11 14", "mean fluorescence intensity [a.u.]": 56.1}
{"Modification": "2'F-ANA at 3 4 5 6 8 10 15", "mean fluorescence intensity [a.u.]": 50.7}
{"Modification": "2'F-ANA at 1 2 3 4 5 8 9 10 11", "mean fluorescence intensity [a.u.]": 54}
{"Modification": "2'F-ANA at 7", "mean fluorescence intensity [a.u.]": 737}
{"Modification": "2'F-ANA at 2 4 6 7 8 9 11 13", "mean fluorescence intensity [a.u.]": 200}
{"Modification": "2'F-ANA at 2 3 5 6 8 10 12 13 14 15", "mean fluorescence intensity [a.u.]": 55.5}
{"Modification": "2'F-ANA at 6 9 10 13 14", "mean fluorescence intensity [a.u.]": 109}
{"data": "Set 3", "target": "RNA binding protein fox-1 homolog 2, RRM domain, GST-SBP tag (RBFOX2, Homo sapiens, UniProt O43251-10, residues 100-194)", "technique": "RNA Bind-n-Seq", "form": "RNA", "matrix": "in vitro", "tested at": "365 nM", "setting": "natural RNA segment, single round, ends assumed", "reference": "no-protein control", "reading": "higher = stronger binding", "shared flanks, not repeated": "GGGAGUUCUACAGUCCGACGAUC … UGGAAUUCUCGGGUGCCAA", "Construct (chain)": "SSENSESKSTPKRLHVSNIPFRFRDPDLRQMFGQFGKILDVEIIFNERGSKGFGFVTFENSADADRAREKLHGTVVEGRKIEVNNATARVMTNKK"}
{"Strand": "CACUGAGGCUUCGUCCUUAUAGUAGUCAGGAGCAGGCGAUUGAAGUAAUUCUGUCCUGCGGGGUUCAGCAUCAUGCACGUUCCCCCUGGGCCAUUCUCUGAUGCAGGGCA", "RBNS enrichment (R)": 0.577}
{"Strand": "GUUGAGAAAGUUGAGGAAUUUCCUCUACCACCUUUGUUGCUUGAAGAAAAACAUGUCUUUUCAAAAUGAGAGGCUUUCAUUGAAGAAAAGAAAAAAACAACAGUUAAAAG", "RBNS enrichment (R)": 0.517}
{"Strand": "ACACACUUUCUCAUGACUUUUAAGAACUGUAGUAAUGUGGCUUAGGAAAUAUAAUGGCCUAAUUGUUUUCAAAAUGUAAGUUCCUGUGAAGAAUUUUGUUUAUAUUGGGU", "RBNS enrichment (R)": 0.684}
{"Strand": "GAUGAUUACUACAGCAAAAGCAGCUAACGUUUUACUUUGUAUCUUGUGUCCUCAGAAUUAAGAACUGGUGUUUGUAAUAAAUCAAAGCAUGCUUAUGUCAGAAUGUGUGG", "RBNS enrichment (R)": 16.8}
{"Strand": "UAAAUGCUCUUAUUUACAGAUCAGAAAACUAACACCAGUGUCAGGAUCACAGUAUGGGAAUGACUGAUGUGACCUUGAAUGCAGCUUGGUUUGACUGACAUUAAAGCCAG", "RBNS enrichment (R)": 7.51}
{"Strand": "CGCUGCCAGGGUGAUCAUUCAUCAGUUUCGGCCACUAGAGACAGAAAACUACACUGCUAAGCCCUGGACUUUGCCCAACCCCUUUCUAGGACCGUUUUCUCCCUCUCUCU", "RBNS enrichment (R)": 0.248}
{"Strand": "UGUAUUUAUCCAUCAUUACUGAAGUAUUUGUUAACUAAGCUAGCAACAAAAUAAUUUCUGUACUUUGGCAAUGUUACUCUAGUGUCUUCUCCCUAAUUCUUUUGUUUCUU", "RBNS enrichment (R)": 0.601}
{"Strand": "ACUCAGUGGCUAAGAGAAUUGGCUGUUCUUCCAGAGGACCCAGGUUUGAUUCCUAGCAGCACAUAGAGGCUAAACCACCUGUAACUCUAGUCUCAGGGGCUCCAACAUCC", "RBNS enrichment (R)": 0.757}
{"Strand": "AGUGUGGUCAGUAAGGAGAGUUGGGGUGGUGCCUUCCAGCCUGCCCGCCAGUCCAUCCUAGACACUCCCAGAGGCUGCUAGCUCCGCCCCUCUGGCAUGGCUUUCCUUUC", "RBNS enrichment (R)": 0.441}
{"data": "Further values, each from its own experiment"}
{"Molecule": "PhoQ, residues 284 288 289 292 302 303 TLMATV", "target": "PhoP, residues 12 14 15 18 19 TTLRV (Escherichia coli, UniProt P23836)", "assay": "Sort-seq, item: YFP reporter", "system": "E. coli", "setting": "PhoQ-PhoP variant library, with: 10 µM Mg2+", "scale": "reference: high Mg2+ state, higher = stronger signaling", "quantity": "fold induction", "value": 17.6}
{"note": "Repeated from above (set 1):"}
{"Variant": "PSIPRNLLNEFDR [K4P]", "normalised enrichment score": 0.133}
{"Variant": "PSIIRNLLNEFDR [K4I]", "normalised enrichment score": 0.0528}
{"Variant": "PSIKDNLLNEFDR [R5D]", "normalised enrichment score": 0.192}
